Published values from different studies.
Each line is one published result; not all experiments were run side by side.

CC1=C(Cn2cc(CN3CCNCC3)nn2)C(=O)c2ccccc2C1=O — killing (Schistosoma mansoni; adult worms; 10 µM, 24 h): 43.5%
NC(=O)c1cnc2[nH]ccc2c1N[C@@H]1[C@@H]2CC3C[C@H]1C[C@@](O)(C3)C2 — percent change (total naive T cells, flow cytometry; Caucasian humans, peripheral blood; 200 mg single dose; reference: baseline): -2.88%
CCCCC1=NC2(CCCC2)C(=O)N1Cc1ccc(-c2ccccc2-c2nnn[nH]2)cc1 — inhibition (Nedd8-cullin1 interaction; neddylation, AlphaScreen; 100 µM): 11.4%
CCn1cc(-c2cc(Cn3ccnc3)cc3c2CCN([C@H](c2cc(OC)ccn2)C2CC2)C3=O)c(C(F)(F)F)n1 — EC50 (RKO; cell growth, inhibitor; 120 h): 9090 nM
CC1=C(Cn2ccnc2[N+](=O)[O-])C(=O)c2ccccc2C1=O — killing (Schistosoma mansoni; adult worms; 25 µM, 48 h): 56.9%
CCOC(=O)[N-]c1cn(N2CCOCC2)n[o+]1 — inhibition (Nedd8-cullin1 interaction; neddylation, AlphaScreen; 100 µM): 6.3%
COc1cnc2cccc(N3CCc4c(cc(Cn5ccnc5C)cc4-c4cn(C)nc4C(F)(F)F)C3=O)c2c1 — EC50 (HEC151; cell growth; 120 h): 267 nM
CC1=C(Cn2cc(COC3COC3)nn2)C(=O)c2ccccc2C1=O — killing (Schistosoma mansoni; adult worms; 25 µM, 48 h): 51%
COc1cc2nc(N3CCN(C(=O)C4COc5ccccc5O4)CC3)nc(N)c2cc1OC (stereo not drawn) — inhibition (Nedd8-cullin1 interaction; neddylation, AlphaScreen; 100 µM): -8.2%
O=C(O)CNC(=O)Cc1ccccc1 — sarcomere length (ventricular cardiomyocytes, C57BL/6 mouse; dose not given, 0.524 s): 1.62 µm
OC(CCN1CCCCC1)(c1ccccc1)C1CC2C=CC1C2 (stereo not drawn) — change in EEG Alpha2-power Pz-O1 (resting-state EEG; healthy elderly humans; oral, 4 mg, eyes open, LS mean; reference: baseline): 24.9%
CC(C)NCC(O)c1ccc(O)c(O)c1 (stereo not drawn) — sarcomere length (ventricular cardiomyocytes, C57BL/6 mouse; dose not given, 0.1 s): 1.72 µm
CC1=C(Cc2cn(Cc3ccccc3)nn2)C(=O)c2ccccc2C1=O — killing (Schistosoma mansoni; adult worms; 10 µM, 48 h): 55.1%
CCC(C(=O)O)c1ccc(N2Cc3ccccc3C2=O)cc1 (stereo not drawn) — inhibition (Nedd8-cullin1 interaction; neddylation, AlphaScreen; 100 µM): 71.4%
CC1=C(Cc2cn(CCN3CCC(=O)CC3)nn2)C(=O)c2ccccc2C1=O — killing (Schistosoma mansoni; adult worms; 10 µM, 24 h): 45.4%
NCCCC[C@H](N[C@@H](CCc1ccccc1)C(=O)O)C(=O)N1CCC[C@H]1C(=O)O — inhibition (Nedd8-cullin1 interaction; neddylation, AlphaScreen; 100 µM): 9.9%
CC1=C(Cn2cc(CN)nn2)C(=O)c2ccccc2C1=O — killing (Schistosoma mansoni; adult worms; 10 µM, 72 h): 45.4%
Cn1cc(-c2ccc(-c3cncc(Cl)c3N3CCC4(CCNC4=O)CC3)cc2)cn1 — fold change in expression (COLO 205; microarray, item: BCL2L1; concentration not given, 6 h, gene set Bcl-XL; reference: untreated cells): 1.2
CCOC(=O)[C@H](CCc1ccccc1)N[C@H]1CS[C@H](c2cccs2)CN(CC(=O)O)C1=O — inhibition (Nedd8-cullin1 interaction; neddylation, AlphaScreen; 100 µM): 84.4%
CCn1cc(-c2cc(Cn3ccoc3=N)cc3c2CCN([C@@H](C)c2cc(OC)ccn2)C3=O)c(C(F)(F)F)n1 — EC50 (BICR6; cell growth; 120 h): 22 nM
CC1=C(Cn2cnc([N+](=O)[O-])n2)C(=O)c2ccccc2C1=O — killing (Schistosoma mansoni; adult worms; 25 µM, 48 h): 45.9%
C[C@](N)(Cc1ccc(O)c(O)c1)C(=O)O — inhibition (Nedd8-cullin1 interaction; neddylation, AlphaScreen; 100 µM): -13.4%
CC1=C(Cc2cn(CCN3CCC(F)(F)CC3)nn2)C(=O)c2ccccc2C1=O — killing (Schistosoma mansoni; adult worms; 25 µM, 48 h): 41.5%
O=[N+]([O-])O[C@@H]1CO[C@H]2[C@@H]1OC[C@@H]2O — inhibition (Nedd8-cullin1 interaction; neddylation, AlphaScreen; 100 µM): 11.3%

For quick reference, copied from above:
C[C@](N)(Cc1ccc(O)c(O)c1)C(=O)O — inhibition (Nedd8-cullin1 interaction; neddylation, AlphaScreen; 100 µM): -13.4%
CC1=C(Cc2cn(CCN3CCC(=O)CC3)nn2)C(=O)c2ccccc2C1=O — killing (Schistosoma mansoni; adult worms; 10 µM, 24 h): 45.4%
CC1=C(Cn2cc(CN3CCNCC3)nn2)C(=O)c2ccccc2C1=O — killing (Schistosoma mansoni; adult worms; 10 µM, 24 h): 43.5%
